Assay results collected from several papers.
Each numbered part is a random draw from the data of one study; scales do not carry over between parts. Changes are numbered by the printed parent chain.
Chain of UniProt P48730 (whole entry, looked up): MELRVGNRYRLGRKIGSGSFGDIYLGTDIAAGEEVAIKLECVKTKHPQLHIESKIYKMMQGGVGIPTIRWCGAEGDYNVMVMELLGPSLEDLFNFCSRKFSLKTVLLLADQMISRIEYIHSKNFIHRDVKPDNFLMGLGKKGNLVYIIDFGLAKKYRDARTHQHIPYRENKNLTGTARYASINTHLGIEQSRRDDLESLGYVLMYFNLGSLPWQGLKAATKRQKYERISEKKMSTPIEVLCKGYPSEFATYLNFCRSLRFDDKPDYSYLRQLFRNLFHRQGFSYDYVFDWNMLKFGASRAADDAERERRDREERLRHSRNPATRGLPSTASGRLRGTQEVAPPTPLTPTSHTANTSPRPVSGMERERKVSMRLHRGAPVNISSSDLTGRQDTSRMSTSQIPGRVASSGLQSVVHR
Chain of UniProt Q8N752 (whole entry, looked up): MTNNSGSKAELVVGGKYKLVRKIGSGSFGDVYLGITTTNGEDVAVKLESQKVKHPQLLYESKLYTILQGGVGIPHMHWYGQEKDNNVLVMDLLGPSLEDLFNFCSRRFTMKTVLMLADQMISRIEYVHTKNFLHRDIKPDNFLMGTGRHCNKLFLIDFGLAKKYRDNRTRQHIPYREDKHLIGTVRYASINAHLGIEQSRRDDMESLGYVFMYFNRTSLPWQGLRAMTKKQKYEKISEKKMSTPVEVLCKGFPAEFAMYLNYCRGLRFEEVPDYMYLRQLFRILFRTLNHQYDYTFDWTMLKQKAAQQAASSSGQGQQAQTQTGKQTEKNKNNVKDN
Chain of UniProt Q9H2K8 (whole entry, looked up): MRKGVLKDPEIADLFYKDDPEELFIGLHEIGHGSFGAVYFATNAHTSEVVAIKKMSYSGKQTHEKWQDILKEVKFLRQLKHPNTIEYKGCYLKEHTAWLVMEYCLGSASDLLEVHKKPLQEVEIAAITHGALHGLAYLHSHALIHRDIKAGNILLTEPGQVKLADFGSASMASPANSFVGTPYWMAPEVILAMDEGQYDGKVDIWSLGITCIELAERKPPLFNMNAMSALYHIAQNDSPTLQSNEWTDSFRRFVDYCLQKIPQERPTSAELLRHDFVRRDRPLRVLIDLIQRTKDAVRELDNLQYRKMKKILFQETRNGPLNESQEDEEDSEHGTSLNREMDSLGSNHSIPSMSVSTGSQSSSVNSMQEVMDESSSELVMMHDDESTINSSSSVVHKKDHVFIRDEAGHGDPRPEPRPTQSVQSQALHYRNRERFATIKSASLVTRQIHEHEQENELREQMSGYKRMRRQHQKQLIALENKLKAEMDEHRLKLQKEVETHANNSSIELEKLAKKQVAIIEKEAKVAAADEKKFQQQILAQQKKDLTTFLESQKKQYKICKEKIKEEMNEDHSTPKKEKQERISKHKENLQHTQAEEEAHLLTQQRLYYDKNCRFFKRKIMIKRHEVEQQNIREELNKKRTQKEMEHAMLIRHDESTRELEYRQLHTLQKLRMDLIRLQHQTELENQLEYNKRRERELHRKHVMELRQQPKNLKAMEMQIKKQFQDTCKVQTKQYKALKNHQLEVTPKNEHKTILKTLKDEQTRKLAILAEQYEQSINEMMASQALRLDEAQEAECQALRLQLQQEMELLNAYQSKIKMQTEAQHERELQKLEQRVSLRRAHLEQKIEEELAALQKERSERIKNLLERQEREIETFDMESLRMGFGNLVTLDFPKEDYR

Series 1 — technique: RNAcompete; molecule type: RNA; matrix: in vitro; concentration: 20 nM; notes: 7-mer, probes averaged, single round; relative to: mean of 7-mers; reading: higher = stronger binding
Target: PABPC1L2, full length, GST fusion (mouse, UniProt A0ABA7IW68)
`GGCUUAC` has a 7-mer Z-score of -0.0518.
For `GGUGUGC`, the 7-mer Z-score was 0.0605.
`UUCUGAA` gave a 7-mer Z-score of -0.238.
For `UUCGAUG`, the 7-mer Z-score was -0.182.
`AUCACGG` gave a 7-mer Z-score of 0.0515.
The 7-mer Z-score of `GAAGGGC` is reported as 0.28.
`GGGGGGU` has a 7-mer Z-score of 0.227.
The 7-mer Z-score of `GUGGCGU` is reported as -0.0228.

Series 2 — observed: cell-free assay; technique: competition with immobilised ligand; concentration: 1 µM
SMILES: Cc1nc(Cc2cccc(C(F)(F)F)c2)sc1-c1ccc(C(N)=O)nc1
It gave 83% for remaining binding (Serine/threonine-protein kinase TAO3 (TAOK3, Homo sapiens, UniProt Q9H2K8)).
The remaining binding was 100% (Casein kinase I isoform alpha-like (CSNK1A1L, Homo sapiens, UniProt Q8N752)).
For Casein kinase I isoform delta (CSNK1D, Homo sapiens, UniProt P48730): remaining binding read 75%.

Series 3 — technique: DHFR PCA, dose-response; matrix: yeast; notes: Hill fit, mean, not affinity; with: (+)-ABA, dose series; reading: lower = more sensitive
Target: ABI1, truncated, D143A, DHFR fusion (Arabidopsis thaliana, UniProt P49597)
Starting sequence: PYL1, truncated, DHFR fusion (Arabidopsis thaliana, UniProt Q8VZS8); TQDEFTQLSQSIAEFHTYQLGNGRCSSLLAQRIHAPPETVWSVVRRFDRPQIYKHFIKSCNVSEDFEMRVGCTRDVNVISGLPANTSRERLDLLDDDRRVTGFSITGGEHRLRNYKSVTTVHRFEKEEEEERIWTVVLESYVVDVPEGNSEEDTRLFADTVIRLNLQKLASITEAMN
`L28S` gave an ABA EC50 of 101 µM.
The ABA EC50 of `V70C` is reported as 14.3 µM.
For `E127M`, the ABA EC50 was 3.01 µM.
With `N22S` the ABA EC50 was 2.84 µM.
With `G21A` the ABA EC50 was 1.82 µM.
With `V143L` the ABA EC50 was 41.5 µM.
`S150C` gave an ABA EC50 of 8.59 µM.
`N114D` gave an ABA EC50 of 70.9 µM.

Further values, each from its own experiment
For `CCC[C@@H]1NC(=O)CSC[C@@H](C(=O)OCC)N(C)C(=O)[C@H](CC(C)C)NC(=O)[C@H](C)N(C)C(=O)[C@@H](CC(C)C)NC(=O)[C@H](C)N(C)C(=O)[C@H]2CCCN2C(=O)[C@@H](CC(C)C)NC(=O)CN(CCC)C1=O`, the logD was 1.88 (hydrocarbon/water).

Excerpt of the above (series 3):
With `G21A` the ABA EC50 was 1.82 µM.
With `V143L` the ABA EC50 was 41.5 µM.
